Values quoted from earlier work, collected from citations in different studies.
Lines come from different studies, so protocols differ. Numbers after ± are the reported error.

COc1cc(OC)cc(C2=C3C(C)=C(I)C(C)=[N+]3[B-](F)(F)n3c(C)c(I)c(C)c32)c1
IC50 (HEp-2; phototoxicity; together with: light 1.5 J/cm^2): 4 µM

O=C(Nc1ccccc1-c1ccc(Cl)cc1)c1nccnc1C(F)(F)F
EC80 (Blumeria graminis; barley): 5 to 20 mg a.i./L

Oc1cccc(-c2cccc(O)n2)n1.[Cl-].[Cl-].[Ru+2].c1cnc2c(c1)c1c(c3cccnc32)OCCO1.c1cnc2c(c1)c1c(c3cccnc32)OCCO1
IC50 (MDA-MB-231; cell viability; together with: blue light 450 nm, 1 h): 3.7 µM

COCCOCCOCCOCCC(=O)NCc1cc(CNC(=O)CCOCCOCCOCCOC)cc(-c2cc3cc4nc(c(OC)c5[nH]c(cc6nc(cc2[nH]3)CC6(C)C)cc5-c2cc(CNC(=O)CCOCCOCCOCCOC)cc(CNC(=O)CCOCCOCCOCCOC)c2)CC4(C)C)c1
internal conversion yield (PBS; room temperature): 0.44

Cc1ccc(C2C3=C(COC3=O)NC3=C2C(=O)c2ccccc2C3=O)cc1 (stereo not shown)
IC50 (SK-LU-1 cells; cell growth): 1.65 ± 0.03 µM

CC(=O)O[C@H]1C2=C(C(=O)C(O)=C(C(C)C)C2=O)[C@@]2(C)CCCC(C)(C)[C@@H]2[C@@H]1O
GI50 (MOLT-3): 10 to 30 µM

CCC1=C(O)c2c(oc(-c3ccc4cc(OC)ccc4c3)cc2=O)C(CC)(CC)C1=O
IC50 (HCT-8; cell growth, SRB): 12 µM

CCNc1cc2c(cc1C)C1(c3cc(C)c(NCC)cc3O2)c2ccccc2C(=O)N1N=Cc1ccnc(-c2cc(C)ccn2)c1.Cc1c(C)c(-c2ccc(-c3ccccc3)cc2)[c-](C)c1C.F[P-](F)(F)(F)(F)F.[Cl-].[Ir+3]
IC50 (BEAS-2B; concentration not given): 3 ± 0.2 µM

CCN(CC)CC(=O)Nc1cccc(-n2cc(-c3ccc4ccc(-c5cn(-c6cccc(NC(=O)CN(CC)CC)c6)nn5)cc4c3)nn2)c1
IC50 (786-0): 2.3 µM

O=C(Nc1ccccc1-c1cccc(F)c1)c1nccnc1C(F)(F)F
EC80 (Puccinia triticina; wheat): 2 to 10 mg a.i./L

CCC1=C(O)c2c(oc(-c3ccc4ccccc4c3)cc2=O)C(CC)(CC)C1=O
IC50 (PC-3; cell growth, SRB): 2.58 µM

CN(C)CCCOc1cc(F)c(-c2c(Cl)nc3ncnn3c2NCC2(C)N=N2)c(F)c1
total α-tubulin level (HEK293; 1 µM, 4 h, unit not given; relative to: vehicle (DMSO)): 0.36 ± 0.04

O=S(=O)(Cc1ccccc1Cn1cc(CNc2ncnc3ccccc23)nn1)c1ccccc1
IC50 (BT-20; cell growth): 24.6 µM

CN1C(=O)[C@@H](Cc2ccc(O)cc2)NC(=O)CNC(=O)[C@H](Cc2ccc3ccccc3c2)NC(=O)[C@H](CCCNC(=N)N)NC(=O)[C@H]1CCCNC(=O)c1ccc(CNC(=O)CN2CCN(CC(=O)O)CCN(CC(=O)O)CCN(CC(=O)O)CC2)cc1 [gallium-68 labelled]
absorbed dose coefficient (PET dosimetry; human patients, pancreas): 0.0128 mGy/MBq

[Cl-].[Cl-].[Ru+2].c1ccc(-c2ccccn2)nc1.c1ccc(-c2ccccn2)nc1.c1cnc2c(c1)ccc1cccnc12
IC50 (MDA-MB-231; dark): > 100 µM

CCN(CC)c1ccc2nc3c4ccccc4/c(=N/c4ccncc4)cc-3oc2c1
IC50 (L6 rat myoblasts; cytotoxicity): 22 µg/mL

CC(=O)OC1C2C3CCC(C(C)(O)C4CC(C)=C(C)C(=O)O4)C3(C)CCC2C2(C)C(=O)C=CC(O)C23OC13 (stereo not shown)
IC50 (BC1; cell growth): 0.68 µM

CC1=C2[O][Ru-]([Cl])[O+]=C2C=CN1CCCN1C=CC2=[O+][Ru-]([Cl])[O]C2=C1C.Cc1ccc(C(C)C)cc1.Cc1ccc(C(C)C)cc1
IC50 (SW480; MTT): 62 ± 14 µM

CC(=O)O[C@H]1C2=C(C(=O)C(OC(=O)c3ccccc3)=C(C(C)C)C2=O)[C@@]2(C)CCCC(C)(C)[C@@H]2[C@@H]1OC(=O)c1ccccc1
GI50 (MCF7; cell growth): 10 to 30 µM

CNCCCOc1cc(F)c(-c2c(Cl)nc3ncnn3c2N[C@@H](C)C(F)(F)F)c(F)c1
acetylated α-tubulin level (HEK293; 10 µM, 4 h, unit not given; relative to: vehicle (DMSO)): 1.06 ± 0.38

Cc1cc2[nH]c(C(=O)Nc3ccccc3C)c(CN3CCOCC3)c2s1
IC50 (human cells; viability): > 10 µM

CC1=C(CO)C(=O)OC(C(C)C2CCC3C4CC5OC56C(O)C(OS(=O)(=O)O)CC(=O)C6(C)C4CCC23C)C1 (stereo not shown)
IC50 (Hs-578T; cell growth): 1.16 µM

O=C1OCC2=C1C(c1cccc(Br)c1)C1=C(N2)C(=O)c2ccccc2C1=O (stereo not shown)
IC50 (SK-LU-1 cells; cell growth): < 0.036 µM

O=C1NCC(Cc2ccccc2)N(CC2CCCN2CC(CC2CCCCC2)N2CC(Cc3ccc(O)cc3)N(CCc3ccccc3)C(=O)C2=O)C1=O (stereo not shown)
IC50 (B16-F10; viability): 3 ± 0.2 µM

COc1ccccc1NC(=O)N[C@H](C(=O)Nc1ccc(C(=O)NO)cc1)c1ccccc1
IC50 (H7402; cell viability, MTT): > 20 µM

COc1cc(/C=C/C(=O)NCCc2ccccc2)ccc1O
IC50 (RAW264.7; nitric oxide production; 24 h, together with: LPS 100 ng/mL): 14.4 ± 2.1 µM

CC(=O)OC1CC2C3C(OC(C)=O)C4OC45C(O)C=CC(=O)C5(C)C3CCC2(C)C1C(C)(O)C1CC(C)=C(C)C(=O)O1 (stereo not shown)
IC50 (Col2; cell growth): 0.06 µM

C=CCc1cccc2c1O[C@H](c1ccc(OCc3ccccc3)c(I)c1)[C@@](Cl)([N+](=O)[O-])C2=O
IC50 (U-937): 10 µM

For quick reference, copied from above:
CC(=O)O[C@H]1C2=C(C(=O)C(OC(=O)c3ccccc3)=C(C(C)C)C2=O)[C@@]2(C)CCCC(C)(C)[C@@H]2[C@@H]1OC(=O)c1ccccc1
GI50 (MCF7; cell growth): 10 to 30 µM

CN1C(=O)[C@@H](Cc2ccc(O)cc2)NC(=O)CNC(=O)[C@H](Cc2ccc3ccccc3c2)NC(=O)[C@H](CCCNC(=N)N)NC(=O)[C@H]1CCCNC(=O)c1ccc(CNC(=O)CN2CCN(CC(=O)O)CCN(CC(=O)O)CCN(CC(=O)O)CC2)cc1 [gallium-68 labelled]
absorbed dose coefficient (PET dosimetry; human patients, pancreas): 0.0128 mGy/MBq

O=C1OCC2=C1C(c1cccc(Br)c1)C1=C(N2)C(=O)c2ccccc2C1=O (stereo not shown)
IC50 (SK-LU-1 cells; cell growth): < 0.036 µM

Cc1cc2[nH]c(C(=O)Nc3ccccc3C)c(CN3CCOCC3)c2s1
IC50 (human cells; viability): > 10 µM
